Results collected from several papers.
Parts stem from different laboratories: compare values within a part only. Positions count from the first letter of the parent shown.

Series 1
Target: ABI1, truncated, D143A, DHFR fusion (Arabidopsis thaliana)
Technique: DHFR PCA, deep sequencing
Matrix: yeast
Setting: methotrexate growth selection, single substitutions
Together with: (+)-ABA 0.11 µM
Baseline: wild-type fitted maximum
Direction: higher = stronger binding
Starting sequence: PYL1, truncated, DHFR fusion (Arabidopsis thaliana); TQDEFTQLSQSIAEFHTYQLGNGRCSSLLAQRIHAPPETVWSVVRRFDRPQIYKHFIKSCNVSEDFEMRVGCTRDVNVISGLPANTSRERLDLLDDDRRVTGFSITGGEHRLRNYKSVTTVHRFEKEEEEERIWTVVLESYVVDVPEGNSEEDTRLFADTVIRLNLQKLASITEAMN; partner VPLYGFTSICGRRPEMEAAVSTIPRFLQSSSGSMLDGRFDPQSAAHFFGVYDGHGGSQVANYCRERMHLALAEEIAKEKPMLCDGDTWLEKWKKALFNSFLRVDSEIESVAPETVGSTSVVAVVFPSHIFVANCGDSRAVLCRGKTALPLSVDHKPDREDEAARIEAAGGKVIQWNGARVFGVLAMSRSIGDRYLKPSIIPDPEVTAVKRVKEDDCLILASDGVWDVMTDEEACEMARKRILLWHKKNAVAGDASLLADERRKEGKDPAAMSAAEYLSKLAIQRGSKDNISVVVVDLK
For `I79L`, “relative binding score” read 6.58%.
`D75T`: “relative binding score” 54%.
`V143Q` — result for “relative binding score”: -2.17%.
For `K58L`, “relative binding score” read -1.48%.
Under “relative binding score”, `V161M` is recorded as 73.6%.
`T17Q`: “relative binding score” 5.67%.
`R88F` — result for “relative binding score”: 16.4%.
`Q10Y`: “relative binding score” 9.5%.
`W41P` — result for “relative binding score”: -3.42%.
Under “relative binding score”, `V78M` is recorded as 63.5%.
`N114H`: “relative binding score” 10.2%.
`E130T` — result for “relative binding score”: 37%.
Under “relative binding score”, `Y18E` is recorded as 0.269%.
`I105D`: “relative binding score” -11.7%.
Under “relative binding score”, `Q51E` is recorded as 22.5%.
`V100Y` — result for “relative binding score”: -9.94%.
Under “relative binding score”, `E109Y` is recorded as 4.54%.
For `R123C`, “relative binding score” read 17.7%.
`Q19I`: “relative binding score” 12.8%.
Under “relative binding score”, `Q167P` is recorded as 6.01%.
Under “relative binding score”, `S87A` is recorded as 12.8%.
For `A84V`, “relative binding score” read 29.2%.
`Q31V`: “relative binding score” 5.65%.
`E128V`: “relative binding score” 16.3%.
`R69D`: “relative binding score” -4.22%.

Series 2
Target: Centromere-binding protein 1, full length, N-terminal tag (CBF1, Saccharomyces cerevisiae, UniProt P17106, residues 1-351)
Sequence of UniProt P17106 (whole entry, looked up): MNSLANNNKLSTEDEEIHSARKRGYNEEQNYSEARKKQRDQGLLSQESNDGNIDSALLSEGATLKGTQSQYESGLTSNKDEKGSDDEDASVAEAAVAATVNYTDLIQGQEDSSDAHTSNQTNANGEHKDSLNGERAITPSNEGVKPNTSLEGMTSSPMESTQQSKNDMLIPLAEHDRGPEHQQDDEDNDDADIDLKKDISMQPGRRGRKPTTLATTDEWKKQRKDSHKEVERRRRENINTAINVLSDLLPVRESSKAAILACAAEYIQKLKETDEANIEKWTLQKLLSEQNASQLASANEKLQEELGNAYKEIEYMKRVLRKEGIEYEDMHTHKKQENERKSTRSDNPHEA
Technique: protein-binding microarray
Form: double-stranded DNA, one strand shown
Matrix: in vitro
Concentration: 0.8 µM
Setting: whole 60-bp probe, no competitor
Direction: higher = stronger binding
The fluorescence intensity of `CTATTCTCTTGGGTAAACGTGTAATTCGATGATTTCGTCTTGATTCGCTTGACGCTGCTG` is reported as 564 a.u.
With `GAACTTGGTTCTGGTGGTGTCTTGCGTCTTCTCTAGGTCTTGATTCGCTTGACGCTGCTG` the fluorescence intensity was 504 a.u.
`CTATTTACTATCTTACACGTGTTTGTAACATAATTCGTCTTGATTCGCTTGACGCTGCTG` has a fluorescence intensity of 6010 a.u.
The fluorescence intensity of `CTACTGGATGATTATCAGGTGTAAGCAATAAGATTCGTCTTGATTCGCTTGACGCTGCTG` is reported as 668 a.u.
`GAAAAATTCTAAATACACGCCACATAAAGAAGGTAGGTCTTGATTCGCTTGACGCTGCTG` gave a fluorescence intensity of 547 a.u.
For `CCTAACTACTATACATTCGTGCAATAGCTTCGTACAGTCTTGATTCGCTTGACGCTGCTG`, the fluorescence intensity was 523 a.u.
With `GAAATAATGCGTAGTCATGACACATTTCCGATCTAGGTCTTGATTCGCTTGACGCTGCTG` the fluorescence intensity was 537 a.u.
For `CTACATCTCGTATTACATGTGAATGTGCCTAATTTCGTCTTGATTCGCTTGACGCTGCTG`, the fluorescence intensity was 605 a.u.
`CTACTAGGTTCGGGTGACGTGAAGATAACGAAATTCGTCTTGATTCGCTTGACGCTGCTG` gave a fluorescence intensity of 553 a.u.
With `CTACACCATTCGGGGCAGGTGACGAAGCAAGAGTTCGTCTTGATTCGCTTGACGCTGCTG` the fluorescence intensity was 1580 a.u.
`CTACGCGTTATTCGTCATCAGGCAAGTAATTATTTCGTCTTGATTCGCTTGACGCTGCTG` has a fluorescence intensity of 585 a.u.
`GAACGGATGCTATGTCACGTTGAATTAGACCGTTAGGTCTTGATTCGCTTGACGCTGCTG` has a fluorescence intensity of 1120 a.u.
`GAACATAACTTGCGTCACCATTTAACACCGTATTAGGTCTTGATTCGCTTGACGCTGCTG` has a fluorescence intensity of 555 a.u.
`CCTAACTACTATACACGTGCGATATAGCTTCGTACAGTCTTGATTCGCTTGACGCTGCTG` gave a fluorescence intensity of 5400 a.u.
With `CTAAAACTGCAGCATCATGATGTTCCTAGACGTTTCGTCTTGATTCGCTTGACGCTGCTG` the fluorescence intensity was 512 a.u.
For `GAAAACCATCGTTTTCACGTTTTTTAATTTTTTTAGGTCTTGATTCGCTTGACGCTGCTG`, the fluorescence intensity was 975 a.u.
`GAAGCTATCTTAACTGACGTGAAGTTGACCCTATAGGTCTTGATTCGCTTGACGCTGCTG` has a fluorescence intensity of 506 a.u.
`CTACGGATTACTTTTCCCACGTGCGAAATCATCTTCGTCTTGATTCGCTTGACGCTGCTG` gave a fluorescence intensity of 5190 a.u.
For `GAAAAAATTAGGGGACGCGTGGGGAGGGCCGGCTAGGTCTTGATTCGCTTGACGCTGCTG`, the fluorescence intensity was 488 a.u.
`CCTAACTACTATATTCTCATGACATAGCTTCGTACAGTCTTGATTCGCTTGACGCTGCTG` gave a fluorescence intensity of 573 a.u.
With `CTAAGGGTAATACATCAGGTAGGTTGAAAATTATTCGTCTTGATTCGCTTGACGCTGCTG` the fluorescence intensity was 490 a.u.
`CTATTTGTAGTATTGAACGTGACAGGAAACAAATTCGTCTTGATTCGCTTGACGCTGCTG` gave a fluorescence intensity of 1830 a.u.
The fluorescence intensity of `CTAGCCTTCCCGTCGCGCGTGATTTGGAGATACTTCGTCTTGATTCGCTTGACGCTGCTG` is reported as 960 a.u.
`GAACTTTTCGCGGCGCACGTGCATGACGGTAAATAGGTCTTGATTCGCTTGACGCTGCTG` gave a fluorescence intensity of 12200 a.u.
With `CTAGTTTTCAAACAACATGTGCCATGTAAGATATTCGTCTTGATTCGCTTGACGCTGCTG` the fluorescence intensity was 882 a.u.

Series 3
Cell line: yeast with cyclin A1-Cln2 chimera
Read-out: cell growth
Action: binder
Technique: competitive growth deep sequencing
Form: peptide
Concentration: concentration not given
Setting: peptide tiling library
Direction: direction not given
`SPREGHMMDALYAQVK`: “growth enrichment score” 0.709.
For `PPTFLSTGEIHAFLSS`, “growth enrichment score” read 0.626.
`AGSAKRRLFGEDPPKE` — result for “growth enrichment score”: 1.58.
Under “growth enrichment score”, `RRRRLLFWDKETQI` is recorded as 0.459.
`HRRRLLFACSPPPASQ` — result for “growth enrichment score”: -0.7.
`YLYLLLTQSLWCRV` — result for “growth enrichment score”: -0.304.
Under “growth enrichment score”, `ATNSSHTDAHEILVSD` is recorded as -0.404.
Under “growth enrichment score”, `NRLLKLFTRCLTPLVP` is recorded as -1.37.
Under “growth enrichment score”, `GPVKLEFDVSDGAT` is recorded as -0.249.
For `VSRNLRSSLKSSLHTL`, “growth enrichment score” read -0.923.
For `RTEALEQGGLPKKLIF`, “growth enrichment score” read -1.72.
Under “growth enrichment score”, `NESHLDKEHDAVEVAD` is recorded as 0.886.

Series 4
Target: UBE2J2 UBC core domain (UniProt Q8N2K1)
Sequence of UniProt Q8N2K1 (whole entry, looked up): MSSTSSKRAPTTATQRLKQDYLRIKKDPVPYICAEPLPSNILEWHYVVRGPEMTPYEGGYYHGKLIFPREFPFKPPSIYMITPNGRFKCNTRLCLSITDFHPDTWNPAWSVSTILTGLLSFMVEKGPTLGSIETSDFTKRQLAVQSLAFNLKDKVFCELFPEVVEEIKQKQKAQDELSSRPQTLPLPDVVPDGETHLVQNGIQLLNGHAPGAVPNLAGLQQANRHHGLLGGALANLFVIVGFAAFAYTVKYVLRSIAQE
Technique: yeast two-hybrid
Matrix: yeast
Setting: mostly zero background
Baseline: not given
Direction: higher = stronger interaction
B1: RMND5B RING domain (UniProt Q96G75); chain MKCWYHSVFACPILRQQTSDSNPPIKLICGHVISRDALNKLINGGKLKCPYCPMEQNPADGK
B2: RNF10 RING domain (UniProt Q8N5U6); chain VRICSHEVPSCPICLYPPTAAKITRCGHIFCWACILHYLSLSEKTWSKCPICYSSVHKKDLKS
B3: RNF115 RING domain (UniProt Q9Y4L5); chain TQEQVDMGLECPVCKEDYTVEEEVRQLPCNHFFHSSCIVPWLELHDTCPVCRKSLNGEDSTR
B4: RNF130 RING domain (UniProt Q86XS8); chain DKETDPDFDHCAVCIESYKQNDVVRILPCKHVFHKSCVDPWLSEHCTCPMCKLNILKALGIV
B5: RNF17 RING domain (UniProt Q9BXT8); chain SQPWGAAEIQCTRCGRRVSRSSGHHCELQCGHAFCELCLLMTEECTTIICPDCEVATAVNTRQR
B6: TRIM47 RING domain (UniProt Q96LD4); chain MDGSGPFSCPICLEPLREPVTLPCGHNFCLACLGALWPHRGASGAGGPGGAARCPLCQEPFPDGLQLR
B7: SHPRH RING domain (UniProt Q149N8); chain KTSGGVNPEPCPICARQLGKQWAVLTCGHCFCNECISIIIEQYSVGSHRSSIKCAICRQTTSHKEISY
Under “lacZ reporter activity”, `B1 (RMND5B RING domain)` is recorded as 2970.
For `MEEMEEELKCPVCGSFYREPIILPCSHNLCQACARNILVQTPESESPQSHRAAGSGVSDY (TRIM9 RING domain (UniProt Q9C026))`, “lacZ reporter activity” read 0.
Under “lacZ reporter activity”, `PLRRLQEEKLCKICMDRHIAVVFIPCGHLVTCKQCAEAVDRCPMCSAVIDFKQRVF (BIRC8 RING domain (UniProt Q96P09))` is recorded as 0.
`GSEEEEIPFRCFICRQAFQNPVVTKCRHYFCESCALEHFRATPRCYICDQPTGGIFNPA (RNF113B RING domain (UniProt Q8IZP6))` — result for “lacZ reporter activity”: 6750.
For `B2 (RNF10 RING domain)`, “lacZ reporter activity” read 0.
`B3 (RNF115 RING domain)`: “lacZ reporter activity” 0.
Under “lacZ reporter activity”, `KITELNPHLMCALCGGYFIDATTIVECLHSFCKTCIVRYLETNKYCPMCDVQVHKTRPLL (PCGF2 RING domain (UniProt P35227))` is recorded as 2490.
`B4 (RNF130 RING domain)`: “lacZ reporter activity” 0.
For `FLSKVEETFQCICCQELVFRPITTVCQHNVCKDCLDRSFRAQVFSCPACRYDLGRSYAMQ (UHRF1 RING domain (UniProt Q96T88))`, “lacZ reporter activity” read 0.
For `B5 (RNF17 RING domain)`, “lacZ reporter activity” read 0.
`B6 (TRIM47 RING domain)` — result for “lacZ reporter activity”: 0.
Under “lacZ reporter activity”, `B7 (SHPRH RING domain)` is recorded as 0.

A few entries again (series 2):
`CTACGCGTTATTCGTCATCAGGCAAGTAATTATTTCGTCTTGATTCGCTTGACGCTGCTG` has a fluorescence intensity of 585 a.u.
`GAACGGATGCTATGTCACGTTGAATTAGACCGTTAGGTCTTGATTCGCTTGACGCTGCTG` has a fluorescence intensity of 1120 a.u.
`GAACATAACTTGCGTCACCATTTAACACCGTATTAGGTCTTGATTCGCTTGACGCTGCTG` has a fluorescence intensity of 555 a.u.
`CCTAACTACTATACACGTGCGATATAGCTTCGTACAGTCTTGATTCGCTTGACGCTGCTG` gave a fluorescence intensity of 5400 a.u.
With `CTAAAACTGCAGCATCATGATGTTCCTAGACGTTTCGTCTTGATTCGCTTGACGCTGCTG` the fluorescence intensity was 512 a.u.
For `GAAAACCATCGTTTTCACGTTTTTTAATTTTTTTAGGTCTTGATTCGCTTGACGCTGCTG`, the fluorescence intensity was 975 a.u.
`GAAGCTATCTTAACTGACGTGAAGTTGACCCTATAGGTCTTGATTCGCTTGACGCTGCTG` has a fluorescence intensity of 506 a.u.
`CTACGGATTACTTTTCCCACGTGCGAAATCATCTTCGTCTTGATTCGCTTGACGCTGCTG` gave a fluorescence intensity of 5190 a.u.
